{"data": "Measured values from different studies", "note": "Each line is one published result; not all experiments were run side by side. Numbers after ± are the reported error."}
{"SMILES": "CSCC[C@@H]1NC(=O)[C@@H]2CSSC[C@H](NC(=O)[C@H](CO)NC(=O)[C@H](C)N)C(=O)N[C@@H](CCCNC(=N)N)C(=O)N[C@@H]([C@@H](C)O)C(=O)N3CCC[C@H]3C(=O)N[C@@H](CCCCN)C(=O)N[C@@H](CC(=O)O)C(=O)N[C@H]3CSSC[C@H](NC(=O)[C@H](CCCCN)NC(=O)[C@H](CCCNC(=N)N)NC(=O)[C@H](CC(N)=O)NC1=O)C(=O)N[C@@H](CCCCN)C(=O)N[C@H]1CSSC[C@H](NC(=O)[C@@H]4CCCN4C(=O)[C@H](CC(=O)O)NC(=O)[C@H](C)NC3=O)C(=O)N[C@@H](C)C(=O)N[C@@H](CCCCN)C(=O)N[C@@H](CCC(=O)O)C(=O)N[C@@H]([C@@H](C)O)C(=O)NCC(=O)N[C@@H](CSSC[C@@H](C(N)=O)NC(=O)[C@H](CCCNC(=N)N)NC(=O)[C@H](CC(N)=O)NC1=O)C(=O)N1CCC[C@H]1C(=O)N[C@@H](Cc1ccc(O)cc1)C(=O)NCC(=O)N[C@@H](CCCCN)C(=O)N2", "system": "DA rat, pristane-induced arthritis, serum", "conditions": "subcutaneous, 0.1 mg/kg every other day, end of 21-day trial", "quantity": "albumin", "value": "3.04 g/dL"}
{"SMILES": "C/C=C/C=C/C/C=C/CCCCCCCc1cccc(O)c1O", "system": "female Kunming mice, tumour-bearing, liver", "conditions": "intravenous, 10 mg/kg, 4 h", "quantity": "tissue concentration", "value": "17500 ± 2230 ng/g"}
{"SMILES": "CNC(=O)Oc1cc(C)c([S+](C)[O-])c(C)c1 (stereo not shown)", "system": "human liver cytosol", "conditions": "1 µM, 30 min, 1 mg/mL protein", "quantity": "percent metabolized", "value": "20.7%"}
{"SMILES": "CC(C)C1=C(O)C(=O)C2=C(C=C[C@H]3C(C)(C)CCC[C@]23C)C1=O", "system": "Artemia salina, artificial seawater", "conditions": "100 ppm, 24 h", "quantity": "mortality", "value": "36.6%"}
{"SMILES": "CCCCCCCCCCCCC(=O)O.O=C1CCCC2C3CCCN4CCCC(CN12)C34 (stereo not shown)", "test": "electrical conductivity", "system": "water", "conditions": "298.15 K, critical micelle concentration", "quantity": "standard entropy of micellization", "value": "88.7 J/(mol·K)"}
{"SMILES": "CC[C@H](C)[C@H](NC(=O)[C@H](CCCNC(=N)N)NC(=O)[C@H](CCC(N)=O)NC(=O)[C@@H](NC(=O)[C@@H](NC(=O)[C@H](CCCNC(=N)N)NC(=O)[C@@H](N)CCCCN)[C@@H](C)CC)C(C)C)C(=O)N[C@@H](CCCCN)C(=O)N[C@H]1CC(=O)N([C@@H](Cc2ccccc2)C(=O)N[C@@H](CC(C)C)C(=O)N[C@@H](CCCNC(=N)N)C(N)=O)C1=O", "test": "chemical stability, HPLC", "system": "human, serum", "conditions": "50 µM, 15 min", "quantity": "compound remaining", "value": "~5%"}
{"SMILES": "CC(C)C[C@H](NC(=O)[C@H](CCCCN)NC(=O)[C@H](CCC(=O)O)NC(=O)[C@H](C)NC(=O)[C@@H](NC(=O)[C@H](CCCCN)NC(=O)[C@H](CC(=O)O)NC(=O)[C@H](Cc1ccc(O)cc1)NC(=O)[C@H](Cc1ccccc1)NC(=O)[C@H](C)NC(=O)[C@H](CCCCN)NC(=O)[C@H](CC(C)C)NC(=O)[C@H](Cc1c[nH]c2ccccc12)NC(=O)[C@@H](N)CC(=O)O)C(C)C)C(=O)N[C@@H](CCCCN)C(=O)N[C@@H](CCC(=O)O)C(=O)N[C@@H](C)C(=O)N[C@@H](Cc1ccccc1)C(=O)N1CCC[C@H]1C(=O)N[C@@H](CC(=O)O)C(=O)N[C@@H](Cc1c[nH]c2ccccc12)C(=O)N[C@@H](C)C(=O)N[C@@H](CCCCN)C(=O)N[C@@H](C)C(=O)N[C@@H](C)C(=O)N[C@@H](Cc1ccc(O)cc1)C(=O)N[C@@H](CC(=O)O)C(=O)N[C@@H](CCCCN)C(=O)N[C@@H](C)C(=O)N[C@@H](C)C(=O)N[C@@H](CCC(=O)O)C(=O)N[C@@H](CCCCN)C(=O)N[C@@H](C)C(=O)N[C@@H](CCCCN)C(=O)N[C@@H](CCC(=O)O)C(=O)N[C@@H](C)C(=O)N[C@@H](C)C(=O)O", "system": "cynomolgus monkey female, plasma", "conditions": "intravenous infusion, 25 mg/kg every other day, day 27", "quantity": "Tmax", "value": "0 h"}
{"SMILES": "C[C@]12CC[C@H](O)CC1CCC1C2[C@H](O)C(=O)[C@]2(C)[C@@H](c3ccc(=O)oc3)CC[C@]12O (stereo partly shown)", "test": "sulfation, substrate", "system": "rabbit liver cytosol", "conditions": "pH 7.4", "quantity": "CLint", "value": "1.27 µL/min/mg"}
{"SMILES": "CC(C)[C@H](NC(=O)CNC(=O)[C@H](CCC(N)=O)NC(=O)[C@H](C)N)C(=O)O", "system": "human", "conditions": "single dose, 30 mg/kg, unlikely related or unrelated", "quantity": "unrelated adverse events", "value": "16.7%"}
{"SMILES": "CC(C)(CCCC/C=C/CCCCCC(C)(C)C(=O)O)C(=O)O", "system": "beagle dog, plasma", "conditions": "oral, 5 mg/kg", "quantity": "AUC(0-t)", "value": "419 µg·h/mL"}
{"SMILES": "CCCC(=O)OC1O[C@@H]2O[C@@]3(C)CC[C@H]4[C@H](C)CCC([C@H]1C)[C@@]24OO3 (stereo partly shown)", "system": "Tg(fli1:EGFP) zebrafish embryos", "conditions": "15 µg/mL, up to 48 hpf", "quantity": "dead embryos", "value": "1 count"}
{"SMILES": "N#CC1(c2ccc3c(N)ncnn23)OC(COP(=O)(O)OP(=O)(O)OP(=O)(O)O)C(O)C1O (stereo not shown)", "test": "LC-MS/MS", "system": "CD-1 mouse, liver", "conditions": "oral, 100 mg/kg of remdesivir", "quantity": "AUC(0-t)", "value": "28200 nmol·h/kg"}
{"SMILES": "CC(CCC(=O)NCC(=O)O)C1CCC2C3CCC4CC(OC5OC(C(=O)O)C(O)C(O)C5O)CCC4(C)C3CC(O)C12C (stereo not shown)", "system": "human, SLCO1B1 *14/*14, plasma", "conditions": "geometric mean, sex-adjusted", "quantity": "plasma concentration", "value": "12.5 ng/mL"}
{"SMILES": "CC1=C(/C=C/C(=O)N2CCN(C(N)=O)CC2)C(C)(C)CCC1", "system": "dog", "quantity": "tolerability", "value": "not toxic"}
{"SMILES": "CN[C@](C)(C[18F])C(=O)O", "system": "SCID mouse MDA-MB-468 xenograft, kidney", "conditions": "120 min post injection", "quantity": "tissue uptake", "value": "2.7 ± 0.5 %ID/g"}
{"SMILES": "COc1cc(NC(=O)C(=O)c2c(C)n(Cc3ccc(Cl)cc3)c3ccc(C)cc23)ccn1", "system": "female cynomolgus monkey, plasma", "conditions": "oral, 10 mg/kg", "quantity": "CL/F", "value": "49.1 mL/min/kg"}
{"SMILES": "CCc1noc(CC)c1C(=O)O[C@H]1C(C)=C[C@]23C(=O)[C@@H](C=C(CO)[C@@H](O)[C@]12O)[C@H]1[C@@H](C[C@H]3C)C1(C)C", "system": "human, epidermis, Franz diffusion cell", "conditions": "topical, 0.1% in hydroalcoholic gel, 21 h, stratum corneum removed", "quantity": "epidermal concentration", "value": "100 µM"}
{"SMILES": "O=C(NCCCCCCCn1ccc2ccccc21)Oc1ccccc1", "system": "rat liver S9 fraction", "conditions": "30 min, together with: NADPH", "quantity": "parent remaining", "value": "59 ± 3%"}
{"SMILES": "CCC(CC)OC1C=C(C(=O)OC(C)OC(=O)C(N)C(C)C)CC(NC(=N)N)C1NC(C)=O (mixture of isomers)", "system": "mouse (fasted)", "conditions": "oral, 10 mg/kg", "scale": "relative to: 1 mg/kg intravenous", "quantity": "oral bioavailability", "value": "48%"}
{"SMILES": "CC[C@H](C)C(=O)N1CCC(NC(=O)Nc2ccc(OC(F)(F)F)c(F)c2)CC1", "system": "human", "conditions": "oral, 8 mg, fed, geometric LS mean", "quantity": "AUC(0-48 h)", "value": "2.02 µg·h/mL"}
{"SMILES": "C[C@H](O)[C@@H](NC(=O)[C@H]1CCCN1C(=O)[C@@H](CCCCN)NC(=O)[C@@H](CO)NC(=O)[C@@H](Cc1ccc(O)cc1)NC(=O)[C@@H](CC(N)=O)NC(=O)CCOCCOCCOCCNC(=O)CN1CCN(CC(=O)O)CCN(CC(=O)O)CCN(CC(=O)O)CC1)C(=O)N[C@H](CC(=O)O)C(=O)N[C@H](CCCNC(=N)N)C(=O)N[C@H](CCC(N)=O)C(=O)N[C@H](Cc1ccc(O)cc1)C(=O)N[C@H](Cc1c[nH]cn1)C(=O)N[C@H](Cc1ccccc1)C(N)=O [copper-64 labelled]", "test": "quantitative PET", "system": "C57BL/6J mice, heart, liver and kidney", "conditions": "intravenous", "quantity": "time to distribution and elimination", "value": "≤ 20 min"}
{"SMILES": "[2H]C([2H])([2H])C([2H])([2H])C([2H])([2H])OC(C(=O)OC1CCNCC1)(c1ccccc1)c1ccccc1", "test": "refers to: boredom", "system": "healthy Japanese male", "conditions": "oral, 10 mg, 16 days, multiple ascending dose", "quantity": "adverse events", "value": "14.3%"}
{"SMILES": "CC1=CC(C)(C)N=C2C=CC(=O)C=C12", "system": "female rats, bone marrow", "conditions": "oral, 350 mg/kg, 48 h", "scale": "relative to: vehicle", "quantity": "mean PCE/NCE ratio reduction", "value": "30%"}
{"SMILES": "CCCCCCCCCCCCCCCC(=O)NCCCCCCNC(=O)C(CCCCNC(=O)CCN1C(=O)CC(SC[C@H](NC(=O)[C@H](CCCNC(=N)N)NC(=O)CNC(=O)[C@H](CCCCN)NC(=O)[C@@H](NC(=O)[C@H](CC(C)C)NC(=O)[C@H](Cc2c[nH]c3ccccc23)NC(=O)[C@H](C)NC(=O)[C@@H](NC(=O)[C@H](Cc2ccccc2)NC(=O)[C@H](CCC(=O)O)NC(=O)[C@H](CCCCN)NC(=O)[C@H](C)NC(=O)[C@H](C)NC(=O)[C@H](CCC(N)=O)NC(=O)CNC(=O)[C@H](CCC(=O)O)NC(=O)[C@H](CC(C)C)NC(=O)[C@H](Cc2ccc(O)cc2)NC(=O)[C@H](CO)NC(=O)[C@H](CO)NC(=O)[C@@H](NC(=O)[C@H](CC(=O)O)NC(=O)[C@H](CO)NC(=O)[C@@H](NC(=O)[C@H](Cc2ccccc2)NC(=O)[C@@H](NC(=O)CNC(=O)[C@H](CCC(=O)O)NC(=O)CNC(=O)[C@@H](N)Cc2c[nH]cn2)[C@@H](C)O)[C@@H](C)O)C(C)C)[C@@H](C)CC)C(C)C)C(N)=O)C1=O)NC(=O)CCN1C(=O)CC(SC[C@H](NC(=O)[C@H](CCCNC(=N)N)NC(=O)CNC(=O)[C@H](CCCCN)NC(=O)[C@@H](NC(=O)[C@H](CC(C)C)NC(=O)[C@H](Cc2c[nH]c3ccccc23)NC(=O)[C@H](C)NC(=O)[C@@H](NC(=O)[C@H](Cc2ccccc2)NC(=O)[C@H](CCC(=O)O)NC(=O)[C@H](CCCCN)NC(=O)[C@H](C)NC(=O)[C@H](C)NC(=O)[C@H](CCC(N)=O)NC(=O)CNC(=O)[C@H](CCC(=O)O)NC(=O)[C@H](CC(C)C)NC(=O)[C@H](Cc2ccc(O)cc2)NC(=O)[C@H](CO)NC(=O)[C@H](CO)NC(=O)[C@@H](NC(=O)[C@H](CC(=O)O)NC(=O)[C@H](CO)NC(=O)[C@@H](NC(=O)[C@H](Cc2ccccc2)NC(=O)[C@@H](NC(=O)CNC(=O)[C@H](CCC(=O)O)NC(=O)CNC(=O)[C@@H](N)Cc2c[nH]cn2)[C@@H](C)O)[C@@H](C)O)C(C)C)[C@@H](C)CC)C(C)C)C(N)=O)C1=O (stereo partly shown)", "test": "refers to: ALT, AST, BUN, creatinine", "system": "db/db mouse, serum", "conditions": "subcutaneous, 500 nmol/kg twice daily, 7 days", "scale": "relative to: control", "quantity": "liver and kidney toxicity markers", "value": "no effect"}
{"SMILES": "CC(=CCC(O)C(C)=Cc1csc(C)n1)CC=CC(C)C(O)C(C)C(=O)C(C)(C)C(O)CC(=O)O (stereo not shown)", "system": "human, plasma", "conditions": "intravenous infusion, 11.3 mg/m2 KOS-1584, 3 h infusion, cycle 1", "quantity": "Cmax", "value": "5.85 ± 1.72 ng/mL"}
{"SMILES": "CCN(Cc1ccccc1)C(=O)CCc1nc(CN2CCN(C(=O)Cc3ccc(OC)c(OC)c3)CC2)no1", "system": "rat, liver", "conditions": "intravenous, 1 mg/kg, 1 h, single dose", "quantity": "concentration", "value": "< 90 ng/g"}
{"SMILES": "CN(C)C(CNC(=O)Nc1cc(C(F)(F)F)ccc1N1CCOCC1)c1ccncc1 (stereo not shown)", "system": "mouse, serum", "conditions": "intraperitoneal, 180 mg/kg single dose", "quantity": "creatine kinase", "value": "8140 U/L"}
{"SMILES": "NC(=O)CC[C@@H](NC(=O)[C@@H](CCC(N)=O)NC(=O)[C@@H](CC(N)=O)NC(=O)[C@@H](CC(N)=O)NC(=O)CNC(=O)Cc1ccc2ccccc2c1)C(=O)N[C@H](CC(N)=O)C(=O)N[C@H](Cc1ccc(OP(=O)(O)O)cc1)C(=O)O", "test": "TEM", "system": "hydrogel", "conditions": "pH 7.4", "quantity": "fibre width", "value": "6 ± 2 nm"}
{"note": "Some of these lines once more:"}
{"SMILES": "O=C(NCCCCCCCn1ccc2ccccc21)Oc1ccccc1", "system": "rat liver S9 fraction", "conditions": "30 min, together with: NADPH", "quantity": "parent remaining", "value": "59 ± 3%"}
{"SMILES": "CCC(CC)OC1C=C(C(=O)OC(C)OC(=O)C(N)C(C)C)CC(NC(=N)N)C1NC(C)=O (mixture of isomers)", "system": "mouse (fasted)", "conditions": "oral, 10 mg/kg", "scale": "relative to: 1 mg/kg intravenous", "quantity": "oral bioavailability", "value": "48%"}
